Measured values from different studies.
Numbered parts are unrelated; each lists some results of a single study.

Study 1
Target: Ras GTPase-activating protein-binding protein 1, C-terminal RGG region (G3BP1, Homo sapiens, UniProt Q13283)
UniProt Q13283, sequence (whole entry, looked up): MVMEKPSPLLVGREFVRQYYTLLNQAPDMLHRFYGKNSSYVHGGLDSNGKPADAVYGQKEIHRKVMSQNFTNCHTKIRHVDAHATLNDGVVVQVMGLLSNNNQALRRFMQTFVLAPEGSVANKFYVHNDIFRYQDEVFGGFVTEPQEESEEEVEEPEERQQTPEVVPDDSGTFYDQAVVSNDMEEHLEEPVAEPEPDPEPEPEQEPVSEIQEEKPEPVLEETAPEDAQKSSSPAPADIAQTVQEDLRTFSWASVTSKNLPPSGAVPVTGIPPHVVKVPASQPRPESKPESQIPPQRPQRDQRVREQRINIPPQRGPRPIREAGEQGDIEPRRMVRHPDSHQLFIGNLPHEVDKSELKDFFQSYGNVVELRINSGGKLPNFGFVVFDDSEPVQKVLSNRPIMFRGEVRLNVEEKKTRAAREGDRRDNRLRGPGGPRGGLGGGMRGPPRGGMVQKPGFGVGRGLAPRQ
Technique: RNA Bind-n-Seq
Form: RNA
Medium: in vitro
Concentration: 1 µM
Notes: whole 134-nt RNA, ends assumed
Together with: 150 mM KCl
Reference: input library
Reading: higher = stronger binding
Quantity: log2 enrichment
All sequences stand within: GGGAGUUCUACAGUCCGACGAUC … UGGAAUUCUCGGGUGUCAAGG
Strand = GUCCUGUGCUACACAUCGUAUGUACCGAAUCGGUUUUUGGUUUUUUUGGAAAAAAAGGAAAGUAUUAUGUUACGCCGUUCGGAUCUGCAC; value = -1.76
Strand = CCUCAAGUCCUGUGCUACACAUCGUAUGUACCGAAUCGGGUGGGUGGGGUGGAAAGUAUUAUGUUACGCCGUUCGGAUCUGCACUUCCAG; value = 1.17
Strand = ACCAUGCAGGUGGGCAUCUUUGGGAAGUGGGGCAAGGGGGGGAUAGGGAGGGGGGUAACACUUUGGGAACAGGUUGUCCCAGGUCGUUUC; value = 2.5
Strand = UGGCCCUGGUGGCAUGCGGGGAGGAAGAGGUGGCCUCAUGGAUCGUGGUGGUCCCGUUGGAAUGUUCAGAGGUGGCCGUGGUGGAGACAG; value = 2.07
Strand = CAAGUCCUGUGCUACACAUCGUAUGUACCGAAUCGGGAGGGAAAAAGGGUUUGGGAAAGUAUUAUGUUACGCCGUUCGGAUCUGCACUUC; value = 1.89
Strand = UGGCCCUGGUGGCAUGCGGGGAGGAAGAGGUGGCCUCAUGGAUCGUGGUGGUCCCGGUGGAAUGUUCCGAGGUGGCCGUGGUGGAGACAG; value = 3.84
Strand = CAAGUCCUGUGCUACACAUCGUAUGUACCGAAUCGGGGUUGGGGUUGGGUUGGGGAAAGUAUUAUGUUACGCCGUUCGGAUCUGCACUUC; value = 2.72

Study 2
Target: Centromere-binding protein 1, full length, N-terminal tag (CBF1, Saccharomyces cerevisiae, UniProt P17106, residues 1-351)
UniProt P17106, sequence (whole entry, looked up): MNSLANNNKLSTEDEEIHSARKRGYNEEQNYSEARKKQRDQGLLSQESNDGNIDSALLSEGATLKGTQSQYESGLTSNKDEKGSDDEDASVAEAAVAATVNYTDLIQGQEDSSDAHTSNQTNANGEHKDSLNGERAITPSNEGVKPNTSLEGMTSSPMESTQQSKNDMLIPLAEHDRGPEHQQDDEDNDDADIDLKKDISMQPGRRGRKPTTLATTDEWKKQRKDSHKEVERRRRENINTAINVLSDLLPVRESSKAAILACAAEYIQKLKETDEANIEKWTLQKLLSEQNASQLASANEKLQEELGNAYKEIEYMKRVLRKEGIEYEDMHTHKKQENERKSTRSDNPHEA
Technique: protein-binding microarray
Form: double-stranded DNA, one strand shown
Medium: in vitro
Concentration: 0.8 µM
Notes: whole 60-bp probe, no competitor
Reading: higher = stronger binding
Quantity: fluorescence intensity
All sequences stand within: … GTCTTGATTCGCTTGACGCTGCTG
Strand = TGTACGAAGCTATAGGTGATGACTATAGTAGTTAGG; value = 511 a.u.
Strand = CTATGCTCCACATAATACGTGGGTCAGACATAATTC; value = 521 a.u.
Strand = GAAAAAAAACCAGATGACGTGGATACTAAGTACTAG; value = 785 a.u.
Strand = CTAAGCAAGGGCATTCTGATGTTACCCTAGAAATTC; value = 501 a.u.
Strand = CTATGCAACGATTATCACGACACAACCTTGCCGTTC; value = 599 a.u.
Strand = GAAGTTTAGGTGAATCACGTGTGCCTGACCACCTAG; value = 9230 a.u.
Strand = GAAATCGTTGCCATGTACGTGCCCTAACTGCAGTAG; value = 528 a.u.
Strand = CTACATGTATGGCTGATGGTGGTGTTCAAAAACTTC; value = 546 a.u.

Study 3
Target: Protein C-ets-1 (ETS1, Homo sapiens, UniProt P14921, residues 1-441, K379A, full length assumed)
UniProt P14921, sequence (whole entry, unmodified, looked up): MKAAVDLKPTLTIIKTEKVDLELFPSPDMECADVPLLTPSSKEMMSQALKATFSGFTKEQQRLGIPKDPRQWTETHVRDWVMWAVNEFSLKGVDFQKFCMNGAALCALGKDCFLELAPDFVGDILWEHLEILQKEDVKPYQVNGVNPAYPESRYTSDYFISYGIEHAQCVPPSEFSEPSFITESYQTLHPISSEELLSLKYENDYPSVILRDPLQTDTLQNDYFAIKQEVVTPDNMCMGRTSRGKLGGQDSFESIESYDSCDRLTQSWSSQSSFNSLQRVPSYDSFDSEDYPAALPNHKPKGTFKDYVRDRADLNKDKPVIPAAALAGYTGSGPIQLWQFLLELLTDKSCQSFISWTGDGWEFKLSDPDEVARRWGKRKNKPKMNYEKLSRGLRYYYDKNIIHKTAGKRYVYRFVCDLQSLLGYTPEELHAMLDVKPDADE
Technique: protein-binding microarray
Form: double-stranded DNA, one strand shown
Medium: in vitro
Concentration: not given
Notes: k-mer, scored over probes, only values ≥0.25
Reading: higher = stronger binding
Quantity: E-score
Strand = ATCGGTAA; value = 0.267
Strand = AGTTAACA; value = 0.258
Strand = AAACCGGT; value = 0.381
Strand = CCGGCCCC; value = 0.263
Strand = TATTGCAA; value = 0.254
Strand = GGTAACAA; value = 0.303

Further values, each from its own experiment
Molecule = PhoQ, residues 284 288 289 292 302 303 SSTLLI; target = PhoP, residues 12 14 15 18 19 IQFRS (Escherichia coli, UniProt P23836); test = Sort-seq, item: YFP reporter; system = E. coli; setting = PhoQ-PhoP variant library, together with: 10 µM Mg2+; scale = reference: high Mg2+ state, higher = stronger signaling; quantity = fold induction; value = 5.51
